Published values collected from several papers.
Numbered parts are unrelated; each lists some results of a single study. Positions count from the first letter of the parent shown.

Series 1 — target: CCNE1, cyclin fold, Cln2 fusion (human); method: yeast growth competition, sequencing; matrix: yeast; setting: weak parent motif; reference: not given; direction: higher = stronger binding; quantity: normalised enrichment score
Starting sequence: WEE2 docking peptide (human); KELRQKLNFSYCE
Change = K1A; value = 0.0212
Change = C12A; value = -0.24
Change = S10A; value = 0.0232
Change = E2A; value = 0.0278
Change = F9A; value = 0.355
Change = E13A; value = 0.433
Change = Y11A; value = -0.0459

Series 2 — method: RNA Bind-n-Seq; form: RNA; matrix: in vitro; concentration: 365 nM; reference: no-protein control; direction: higher = stronger binding; quantity: RBNS enrichment (R)
Target: RNA binding protein fox-1 homolog 2, RRM domain, GST-SBP tag (RBFOX2, Homo sapiens, UniProt O43251-10, residues 100-194)
Setting: natural RNA segment, single round, ends assumed
Construct (chain): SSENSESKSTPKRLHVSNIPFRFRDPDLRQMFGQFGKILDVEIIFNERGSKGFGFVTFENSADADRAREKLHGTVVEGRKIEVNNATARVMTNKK
Sequence = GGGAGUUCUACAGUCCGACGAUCUAUGUUGCCAGUGGUUUCACACAAAUUCCCUUGUAUUUAUUUGUUGAUUAAAUCAAGUGAGAAAGGUAAAGCAGUGUGUCUUCAGUUAUUUAAGGAACCUUAUGCUGUGUUGGAAUUCUCGGGUGCCAA; value = 0.428
Sequence = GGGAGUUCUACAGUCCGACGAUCGACCCUACCCCUUCCAUGUCCCACCCCACUCCCACCAAAAAGUACAAAAUCAGGAUGUUUUUCACUGUCCAUUGCUUUGUGUUUUAAUAAACAAUUUGCAGUGACACUCUUGGAAUUCUCGGGUGCCAA; value = 0.61
Sequence = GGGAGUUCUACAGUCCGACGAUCGGUCCAUUUAAAGAGGAAAUUACAUUGUUACUCUUCUUGAUCUCCUCAGGCUAUGUAAGUCUGAAGUACUGUUCUUCUCCACUAAGUAAUACCCAACUAAUUUCCAUUUAUGGAAUUCUCGGGUGCCAA; value = 0.283
Sequence = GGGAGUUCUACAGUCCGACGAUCCUCCCGAGUGCUGGAGCUAAUGGGGAUCACCACCACAGCCCAGCUCAAGUUCUUUCUCUUGGUUAGUCCAGCACACCACUUUGUUCUCUUGGGCCGUAUCUGCUGUGUCAUGGAAUUCUCGGGUGCCAA; value = 0.562
Sequence = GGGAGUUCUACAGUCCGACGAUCUGCAAAUGAAAACAAGGGAGGGAAAGUUGUAUUAUUUCCUGCACUGGGUUACCCGUGUGUGUUAUCGUUUAAACUGUAUUCACAUAAUGUCAUUUGCCUUGCUCACUUGUUGGAAUUCUCGGGUGCCAA; value = 0.313
Sequence = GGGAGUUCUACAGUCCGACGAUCGAAUUGCCAGUCCAACUUUUCCUGGCACUGGAAGAAAAAAAAUAAGUGUCCCACCCCUGGAGGGUUAAUCCCUAUCUCUUCCUUUUGACCCCUGACUUGUUCUGGCAAGGUGGAAUUCUCGGGUGCCAA; value = 0.492
Sequence = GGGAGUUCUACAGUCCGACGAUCUGGCUUAGAAGUGAGGCUCCCUUGAGGUAGGGGUGAGGAUGCAGUACCGGGAAAGUUGGUUAUCUUGGGGUCUCAGCUUCAUUACUGCUUAGGGUUUCCCUGCCCACUCUUGGAAUUCUCGGGUGCCAA; value = 0.519
Sequence = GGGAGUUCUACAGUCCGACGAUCUGAAUUCAAGGGGCAGAUGAAUUUUUGGCAUUGUGUUUUUUCUUACUCAAAAUCUGUUUAUUGGGUUACUGCCCCCAUAAAAAGUAAACAUGACUUUUAAGUAUUUUUUUUGGAAUUCUCGGGUGCCAA; value = 0.739

Series 3 — target: NFIL3, bZIP domain (human); method: DHFR protein complementation; matrix: yeast; reference: wild-type JUN-FOS pair; direction: higher = stronger binding; quantity: binding fitness
Setting: single substitutions, most at no-binding floor
Starting sequence: JUN, bZIP domain (human); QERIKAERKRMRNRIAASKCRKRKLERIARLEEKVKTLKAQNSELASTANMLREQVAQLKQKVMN; partner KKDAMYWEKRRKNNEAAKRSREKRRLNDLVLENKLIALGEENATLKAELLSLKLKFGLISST
Change = Q41E; value = -1.55 natural log
Change = R30K; value = -1.43 natural log
Change = A49Q; value = -1.35 natural log
Change = S43K; value = -1.19 natural log
Change = A46V; value = -1.48 natural log
Change = E54R; value = -1.48 natural log
Change = A57M; value = -1.28 natural log
Change = Q55K; value = -1.57 natural log
Change = M51R; value = -1.45 natural log
Change = A49H; value = -1.52 natural log
Change = Q41N; value = -1.51 natural log
Change = I28M; value = -1.18 natural log
Change = V56A; value = -1.47 natural log
Change = S47I; value = -1.54 natural log
Change = A46F; value = -1.51 natural log
Change = E44Y; value = -1.53 natural log

Series 4 — method: RNA Bind-n-Seq; form: RNA; matrix: in vitro; concentration: not given; reference: input RNA pool; direction: higher = stronger binding; quantity: bound/input enrichment
Target: RING finger protein unkempt homolog, zinc fingers 1-6, GST-SBP tag (UNK, Homo sapiens, UniProt Q9C0B0, residues 30-357)
Chain of UniProt Q9C0B0 (30-357, looked up): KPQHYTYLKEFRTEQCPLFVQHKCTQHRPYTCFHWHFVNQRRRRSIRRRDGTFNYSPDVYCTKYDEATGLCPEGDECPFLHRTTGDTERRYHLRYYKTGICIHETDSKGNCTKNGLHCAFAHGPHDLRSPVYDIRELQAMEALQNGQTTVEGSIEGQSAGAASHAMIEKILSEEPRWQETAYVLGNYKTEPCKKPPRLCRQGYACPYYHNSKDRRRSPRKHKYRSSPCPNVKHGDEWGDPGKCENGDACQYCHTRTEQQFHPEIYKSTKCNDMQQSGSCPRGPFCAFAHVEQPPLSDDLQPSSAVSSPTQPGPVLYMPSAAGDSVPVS
Setting: RNA with constant flanks, human and mouse sites, ends assumed
Sequence = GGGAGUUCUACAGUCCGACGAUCCUGUGGUGACUCAGAUAAAGGAUUUGUCGUUAUUAAUCAAAAGGGGAUUGACCCCUUUUCCUUAGAUGCCCUUGCGAAAGAAGGGAUCGUAGCUCUGCGCAGAGCCAAGAGGAGAAACAUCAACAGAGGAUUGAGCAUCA; value = 0.303 ratio
Sequence = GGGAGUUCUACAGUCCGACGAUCGAAAAACCACAUAAGAGCCAAACCCUGGCCUUUCCAUUUUAAAUAUUUUUAUUCAGUCCCUUCUCUGGUUCUUUUCCUCUUACUCUGAUUUUCCUUUUAAGACAAAAACAAAAAUUUGAGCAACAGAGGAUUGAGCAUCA; value = 1.47 ratio
Sequence = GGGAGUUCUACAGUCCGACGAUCCUGCCCAUUCUGAAAGGAGACAGAAACUUAACCUGGAGGUCAGACGUGCUGGUGGAAUAUCAAGGAGAAGGCCGGAAUGUCACCGACCCGACCUGCCCUUCUUUGAGUCCUGGAGUGUCUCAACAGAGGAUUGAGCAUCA; value = 0.0773 ratio
Sequence = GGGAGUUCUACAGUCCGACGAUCGAGAGAGAUACGGAGAGACAGACAGACAGAGAGAGAGACAGAGAGAGAGAUGCUUUCCCAAGAGGAAAUGCAUAUGUACCUUGAUUUAAGCAAAACUGAUAACAGAAAAUUGAACUUAAUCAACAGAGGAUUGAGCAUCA; value = 0.277 ratio
Sequence = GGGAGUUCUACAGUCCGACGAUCCUGAAUCUUCUAAAUCACCCAUGGCUGGUCCAGGAUACAGAGGCUGAAACUCUGACUGGUUUUUUGAAUGGCAUUGAGUGGAUUCUUGAAGAAGUGGAAUCUAAGCGUGCAAGAUGAUUCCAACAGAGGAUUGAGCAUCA; value = 0.188 ratio
Sequence = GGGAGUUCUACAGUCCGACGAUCAUUUGGCCCAUCUGAGACCAAUGAAUCCCCUGCAGUUGUGCUAGAACCUCCUGUAGUAUCAAUGGAGGUAUCAGAGCCACACAUCUUAGAAACUCUGAAGCCAGCUACAAAAACUGCAGACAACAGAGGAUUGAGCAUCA; value = 0.509 ratio
Sequence = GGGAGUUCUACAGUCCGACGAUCAACAAUCCAUAUGCGACCACAGAAGGAAAUUCAACAGAACUUAGCAUAAAUGCUGAAGUGUAUUCAUUGCCUUCAAGAAAGCUGGUGGCUCUACAGUUAAGAUCCAUUUUUAUUAAGUAUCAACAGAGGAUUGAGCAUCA; value = 0.266 ratio
Sequence = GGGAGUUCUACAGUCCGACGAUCUUUCUUCCACCUACCACCGUGGCUGGUGCCACUCUUUACUCAGUGGCAAUGUACGGUGGAUUAGUUCUUUUCAGCAUGUUCCUUCUGUAUGAUACCCAGAAAGUAAUCAAGCGUGCAGAACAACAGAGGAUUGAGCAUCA; value = 0.286 ratio

Excerpt of the above (series 1):
Change = S10A; value = 0.0232
Change = F9A; value = 0.355
Change = E13A; value = 0.433
